Results of several laboratories.
Parts stem from different laboratories: compare values within a part only. Substitutions count along the parent as printed.

Study 1 — technique: RNA Bind-n-Seq; molecule type: RNA; medium: in vitro; concentration: 365 nM; baseline: no-protein control; direction: higher = stronger binding
Target: RNA binding protein fox-1 homolog 2, RRM domain, GST-SBP tag (RBFOX2, Homo sapiens, UniProt O43251-10, residues 100-194)
Setting: natural RNA segment, single round, ends assumed
Shared flanks, not repeated: GGGAGUUCUACAGUCCGACGAUC … UGGAAUUCUCGGGUGCCAA
Target sequence (chain): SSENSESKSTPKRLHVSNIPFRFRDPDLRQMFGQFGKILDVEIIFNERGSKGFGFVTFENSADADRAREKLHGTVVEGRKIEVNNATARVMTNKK
Strand | RBNS enrichment (R)
UAUGGGAAGGCUGCAAAGGCUGAGAAAUGCAAAGGCUCAUAUUUAUAAAUCCCACCCCCAGAGUGGGGAGGGUCAGGUGCCAGACCUGGACUAAACUGCACCAAGGAAAC | 1.36
AUUAAGUGUCUAAUGCUAGGAGUUUAUUGGAAGUGUUUAAGAAAUAAAAGAACUCAACUUUUACACUGAUAAAAUACUCUAGCUUGGGCCAGAGAAGACAGUGCUCGUUA | 2.78
GUCUGCUUCCAGCCAGUCUGCAACAUCUAGCCAUACCUUUCUUAUGCAAGCCAUUCAGUUAUCAGGACUGUGAAUUAACACUGUAUGAAUACAUUUCUGUACACCUUAUU | 0.664
AGCACAGAUUCCACAUUUUUAUACAUGAGGAUCUUCUUUGUGGUGAAUACCAGGAUUGACUGCAUCCCUUUAAAGAAGUUUUAUGUCCCUGACUCUGGCUAAAAUUAUCU | 0.688
UUUAGUUUCUAGGAAGCCACUGUGCUGUGCUAAGAAGCAGUUGGUCAGGAGGGCUCAGCCCAGGAGCAGGUGGCCCUGGGGUGCAUGUCAGCCAGGGGCCAGUCAGCCCA | 2.13
AAAGGUGAUAAACAUGAAGUAACUGACCCAGAGUUGGUUUAUCUUUGAGUAAACCUUUUUAGUUUUUACCUCAGCAGAGUGUUAGUAUGGCUGCUUUGCAGUCCCUGCUA | 0.286
AACUCUUGAACUGAUGUCAGCACCCAAAUGGCUCCUGAAUUUAAGUCUGGGAGGACAUCUUUUUAUUUUUACAUGAAUCUUUAAACAAUUCUGUGAGCAGAGUUUCUAGC | 0.331
CUUGGGUUUGGAGCUUAUUUGAAUGGAAGAGGUCAGUUUGUUCCUGGCUCUCCAUUUCUGGCCUCAGUUGUCUACAGGACAGUGGUCAGGGAUGCCUGGAGGCAUAUAUC | 0.549
UAUUAACCUGCAAAUGGACUGUCAGCACCAGGUGGUGUCUUCUAACUCUGGUCCUUACAUCACAGAGAAAAGCCACCUUGCCCGUUUUUCCUCCAUUCUGUGAACUUCCC | 0.544
ACCACAGUCCAUAAUAUAUCAGGAUCUGGCAAGCUUAAGGAACCCAGCUCUUAGAAAUUUCUCUUCUUCUACACUUGUUGCUCUCACCAGUGAAACGCUUUGUAAGGAGG | 0.4
CUGUAGAGGUAUGAAAAUACAGCCCCAAAGGGGGAAUUUGUCAUGGGGAAGGGCCAGCCACUGACUACUUGAUCUUGGAGACCACAUUUAGAUGGAAAUGAGAGGACCUC | 0.817
GGAGCCCGGGUGGUGCCCUGAGCCUCGAGCUGCUCUCUGUCACUGUCUUGAAUCAGACUCAGAAAUGGCUUCUUCCCAGCCCUGCCUACAAGUUUUUCUCUGGGGUCCUC | 0.435

Study 2 — technique: universal PBM; molecule type: double-stranded DNA, one strand shown; medium: in vitro; concentration: not given; direction: higher = stronger binding
Target: Sal-like protein 4, full length isoform B (SALL4, Homo sapiens, UniProt Q9UJQ4-2, residues 1-616)
Setting: 8-mer, flanks averaged, mean of replicates
Strand | E-score
CGCGTTCC | -0.238
CAGAGGAA | -0.129
TCGAGTAA | 0.0895
CTTGCTAC | -0.0847
AGACATGG | 0.0849
CTCGCTAA | -0.0818
ATCCACGG | -0.193
GGCTTCAA | -0.00297
AACGCCTC | -0.203
CGCAAAGC | -0.143
ATGAGACC | 0.0268
CGCATGGC | -0.11
AAGCTAAT | 0.178
CTGCTAAC | -0.0411
CGATACAG | -0.0672
ACTTAACC | 0.18
GGGCTAAA | -0.131

Study 3 — technique: DHFR PCA, deep sequencing; medium: yeast; together with: (+)-ABA 1.4 µM; baseline: wild-type fitted maximum; direction: higher = stronger binding
Target: ABI1, truncated, D143A, DHFR fusion (Arabidopsis thaliana)
Setting: methotrexate growth selection, single substitutions
Starting sequence: PYL1, truncated, DHFR fusion (Arabidopsis thaliana); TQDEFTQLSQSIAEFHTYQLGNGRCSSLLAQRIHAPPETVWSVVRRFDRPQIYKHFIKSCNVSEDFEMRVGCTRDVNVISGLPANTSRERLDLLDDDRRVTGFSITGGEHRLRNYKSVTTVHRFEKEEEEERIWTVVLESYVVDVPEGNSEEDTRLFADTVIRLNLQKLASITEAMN
Change | relative binding score [%]
L94M | 40.8
Q7S | 64.1
F157S | 7.54
S27W | 16
F66M | 22.3
D75F | 61.5
T160V | 5.52
F124L | 73
Q167E | 48.7
S26P | 2.57
Q10E | 79.2
E14R | 13.7

Study 4 — technique: protein-binding microarray; molecule type: double-stranded DNA, one strand shown; medium: in vitro; concentration: 250 nM; setting: 60-bp whole probe; together with: salmon DNA 0.4 mg/ml; baseline: random background probes; direction: higher = stronger binding; shared flanks, not repeated: GCCTAGCAC … GTCTTGATTCGCTTGACGCTGCTG
Target: Interferon regulatory factor 7, full length, phosphomimetic (IRF7, Homo sapiens, UniProt Q92985, residues 1-503, S101K/S471D/S472D/S475D/S476D/S477D/S483D/S484D/S487D)
Sequence of UniProt Q92985 (whole entry, unmodified, looked up): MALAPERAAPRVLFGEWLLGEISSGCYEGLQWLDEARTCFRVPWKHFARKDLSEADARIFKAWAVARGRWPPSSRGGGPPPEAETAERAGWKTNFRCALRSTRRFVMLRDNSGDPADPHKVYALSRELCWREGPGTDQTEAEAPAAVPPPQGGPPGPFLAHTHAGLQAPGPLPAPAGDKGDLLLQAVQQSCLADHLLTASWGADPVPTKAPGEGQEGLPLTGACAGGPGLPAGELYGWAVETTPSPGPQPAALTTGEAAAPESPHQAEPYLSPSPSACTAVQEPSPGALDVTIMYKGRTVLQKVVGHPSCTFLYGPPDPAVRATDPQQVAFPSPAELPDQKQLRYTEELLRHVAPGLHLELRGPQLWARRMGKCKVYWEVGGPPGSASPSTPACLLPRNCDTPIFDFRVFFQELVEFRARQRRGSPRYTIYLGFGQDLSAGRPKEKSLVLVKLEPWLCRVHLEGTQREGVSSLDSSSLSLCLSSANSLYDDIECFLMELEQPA
Strand | log fluorescence [z-score]
TTAGGTATCGGTTTCGGTGAGTGCTAG | 6.29
GACGGTTTCGGTATCGCGACGTGCTAG | 10.9
GACGGTTTCGGACTGGGTACGTGCTAG | 4.01
TTAGATATCGGGACTGGATAAGTGCTA | 0.192
GACGGACAGGGTTTCGGGACGTGCTAG | 1.55
TTAGTTTTCGGGTTTCGGTTAGTGCTA | 9.22
TCACCTCCCTAATTCTGACTGTGCTAG | 0.197
TTAGGTTTCGCGACTGGGTTAGTGCTA | 1.36
TAAGGTTTCGGTTTCGGTTAGTGCTAG | 15.3
TTGACTCTTTCTGTCAGTTTGTGCTAG | 0.619
TTAGGTTTCGACATTCGGTTAGTGCTA | 7.74
TTAGATATCGGTATCGGTTAGTGCTAG | 1.44
GACGGTTCCGGTGTCGGGACGTGCTAG | 0.0267
GAGGGTCTCCTTCTCCTGACGTGCTAG | -0.226
TTAGGTCTCGGTTTCCGTTAGTGCTAG | 8.44
AGGACTCGAATCCTGCAGGGGTGCTAG | 2.4
TTTTATATCTTATCCTATCAGTGCTAG | 1.01
TTAGATTCCAGTTTCGGTTAGTGCTAG | 10
GACGGTATCGGGAATCGGGACGTGCTA | 0.0442
ACACGGCTCTAAACTCATGTAGTGCTA | -0.417
TTAGGACTGGACTTTCGGTTGGTGCTA | 0.789
GACGGGATCGGGTATCGGGACGTGCTA | -0.168
TTTGATATCGGGTTTCGATTAGTGCTA | 6.47
GACGGACTGGGGTTTCGGAACGTGCTA | 1.92
TTAGGACTGGACTTTTGGTTAGTGCTA | -0.532

Study 5 — target: CCND2, cyclin fold, Cln2 fusion (human); technique: yeast growth competition, sequencing; medium: yeast; setting: weak parent motif; baseline: not given; direction: higher = stronger binding
Starting sequence: WEE1 docking peptide (human); HKTFRKLRLFDTP
Change | normalised enrichment score
HKTFRKLRLVDTP [F10V] | -0.0551
HKTFRKLRLFVTP [D11V] | -0.127
HKTFRKLRLFDLP [T12L] | -0.457
HKTFRKLRLSDTP [F10S] | -0.128
HKTARKLRLFDTP [F4A] | 0.289
HKTFRKLYLFDTP [R8Y] | 0.572
HKTFRKLRLQDTP [F10Q] | -0.635
HKTFRKLRLFDTC [P13C] | 0.561
HKTFRKLRLFATP [D11A] | -0.0233
HKTFRKLRLFDQP [T12Q] | -0.0476
HKTFRKLRLCDTP [F10C] | 0.0765
HATFRKLRLFDTP [K2A] | 0.136
DKTFRKLRLFDTP [H1D] | 0.321
HKTFRKLRLFDVP [T12V] | 0.479
HKTFQKLRLFDTP [R5Q] | 0.16
HKTFRKLRLFDTG [P13G] | -0.111
HKTFAKLRLFDTP [R5A] | -0.596

Study 6 — technique: protein binding microarray; molecule type: double-stranded DNA, one strand shown; medium: in vitro; concentration: not given; baseline: not given; direction: higher = stronger binding
Target: Histone acetyltransferase KAT6A, both winged helices, GST fusion (KAT6A, Homo sapiens, UniProt Q92794, residues 1-181)
Setting: 8-mer, flanks averaged, mean of 2 arrays, mostly near background
Target sequence (chain): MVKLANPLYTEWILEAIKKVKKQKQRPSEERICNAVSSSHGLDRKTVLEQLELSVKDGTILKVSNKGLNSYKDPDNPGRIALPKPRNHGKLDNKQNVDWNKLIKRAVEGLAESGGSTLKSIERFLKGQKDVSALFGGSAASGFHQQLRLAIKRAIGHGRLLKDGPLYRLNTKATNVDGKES
Strand | E-score
CGTCTTGC | 0.105
AATGCCGA | 0.239
ACGTACGT | -0.141
AGCCTTCG | -0.0991
TCACGCGA | 0.193
GACCTAAA | 0.00263
CTACGCGA | 0.17
CAGGGACA | -0.126
GTGCACAC | -0.115
GCTGATCA | 0.0382
GCGTAATA | 0.163
CATTCATA | -0.0403
ACCGTAAG | 0.22
ACATCAGG | -0.196
CAGAACCG | 0.0389
CAATAACG | 0.105
CTCGAAGC | 0.00304
ACGGGTTA | 0.268
AGACCTGC | -0.142
CGCACGAA | 0.129
AACTATTA | -0.0824
CCTGTACG | -0.0365

Some of these lines once more (study 6):
Strand | E-score
GCTGATCA | 0.0382
GCGTAATA | 0.163
AATGCCGA | 0.239
GACCTAAA | 0.00263
TCACGCGA | 0.193
GTGCACAC | -0.115
CCTGTACG | -0.0365
CGTCTTGC | 0.105
AGCCTTCG | -0.0991
CGCACGAA | 0.129
CATTCATA | -0.0403
ACGGGTTA | 0.268
CAGGGACA | -0.126
ACCGTAAG | 0.22
CTACGCGA | 0.17
ACATCAGG | -0.196
